Experimental data gathered from unrelated publications.
Compare with care: the assays were run in different laboratories.
Route: intravenous

Structure (SMILES) | test system | setting | clearance
N#Cc1ccnc(N2C(=O)CC[C@H]2C(=O)N(c2cc(F)cc(F)c2)[C@H](C(=O)NC2CC(F)(F)C2)c2ccccc2Cl)c1 (stereo in doubt) | beagle dog, plasma | 1 mg/kg | 2 mL/min/kg
COc1cc2ncnc(Oc3ccc(Nc4nccc5[nH]cc(-c6ccc(F)cc6)c(=O)c45)cc3F)c2cc1OC | male beagle dog, plasma | 2 mg/kg | 1.13 mL/min/kg
CCC1(CC)CC(=O)N(C2CCOc3ccc(C(=O)NC4CC(C)(C)Oc5ccccc54)cc32)C(=N)N1 (centres unmarked) | male beagle dog, plasma |  | 6.5 mL/min/kg
N#Cc1ccnc(N2C(=O)CC[C@H]2C(=O)N(c2cncc(F)c2)[C@H](C(=O)NC2CC(F)(F)C2)c2ccccc2Cl)c1 | beagle dog, plasma | 1 mg/kg | 0.333 mL/min/kg
CCC1(CC)CC(=O)N(C2c3cc(C(=O)NC4c5ccccc5CC4O)ccc3OC2(C)COC)C(=N)N1 (centres unmarked) | male beagle dog, plasma |  | 8.9 mL/min/kg
Cc1[nH]nc2c1N=C(c1ccccc1Cl)c1cnc(N3CCOCC3)cc1N2 | male beagle dog, plasma | 1 mg/kg | 3.67 mL/min/kg
C/C(N)=N/C(=N\S(=O)(=O)c1ccc(C(F)(F)F)cc1)N1C[C@H](c2ccccc2)C(c2ccc(Cl)cc2)=N1 | male beagle dog, plasma | 2 mg/kg | 3.8 mL/min/kg
OCC1OC(n2cnc3c(NCc4ccc(Br)s4)ncnc32)C(O)C1O (centres unmarked) | beagle dog, blood | 0.5 mg/kg | 257 mL/min
